Measurements gathered from unrelated publications.
Numbered parts are unrelated; each lists some results of a single study. Substitutions count along the parent as printed.

Set 1
Target: Ras GTPase-activating protein-binding protein 1, RRM domain (G3BP1, Homo sapiens, UniProt Q13283)
Sequence of UniProt Q13283 (whole entry, looked up): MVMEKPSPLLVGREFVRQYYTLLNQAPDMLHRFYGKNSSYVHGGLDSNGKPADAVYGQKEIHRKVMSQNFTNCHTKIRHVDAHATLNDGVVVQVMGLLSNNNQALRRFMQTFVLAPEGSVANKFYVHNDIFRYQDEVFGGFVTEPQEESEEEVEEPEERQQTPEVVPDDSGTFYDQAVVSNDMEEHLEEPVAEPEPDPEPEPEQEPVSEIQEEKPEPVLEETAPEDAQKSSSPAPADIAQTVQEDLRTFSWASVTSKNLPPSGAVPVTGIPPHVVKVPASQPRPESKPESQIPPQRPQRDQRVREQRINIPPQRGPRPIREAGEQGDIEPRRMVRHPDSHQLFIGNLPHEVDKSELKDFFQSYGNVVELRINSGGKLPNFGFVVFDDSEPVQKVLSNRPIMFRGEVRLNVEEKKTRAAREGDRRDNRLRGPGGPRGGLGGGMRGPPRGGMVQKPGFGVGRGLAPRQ
Technique: RNA Bind-n-Seq
Form: RNA
Sample: in vitro
Concentration: 1 µM
Setting: whole 134-nt RNA, ends assumed
Added: 150 mM KCl
Reference: input library
Reading: higher = stronger binding
All sequences stand within: GGGAGUUCUACAGUCCGACGAUC … UGGAAUUCUCGGGUGUCAAGG
| Strand | log2 enrichment |
| --- | --- |
| UGGGAGGUGGAUUUUGUUCAUUUUUUUAGCUCAUUUCCAGGGGUGGGAAUUUUUUUUUAAUAUGUGUCAUGAAUAAAGUUGUUUUUGAAA | 1.03 |
| UCAAGUCCUGUGCUACACAUCGUAUGUACCGAAUCGGGGUUUGGGUUUGGUUUGGAAAGUAUUAUGUUACGCCGUUCGGAUCUGCACUUC | -0.412 |
| GUCCUGUGCUACACAUCGUAUGUACCGAAUCGGGAAAAAGGGUUUUUUUGGGAAAGGGAAAGUAUUAUGUUACGCCGUUCGGAUCUGCAC | 0.00833 |
| CACAGACAACACGCACCCACACAGACACAGAGGGAAGGGGUUGGGAUGGGGACAGGGUGCACAGCAGGGUGGGGUAGGACCCCAGCCCCU | -0.339 |
| ACCAUGCAGGUGGGCAUCUUUGGGAAGUGGGGCAAGGGGGGGAUAGGGAGGGGGGUAACACUUUGGGAACAGGUGGUCCCAGGUCGUUUA | 0.99 |
| UCCUGUGCUACACAUCGUAUGUACCGAAUCGGGUUUUUUUGGGUUUUUUUGGGUUUGGGAAAGUAUUAUGUUACGCCGUUCGGAUCUGCA | -0.215 |
| AGUCCUGUGCUACACAUCGUAUGUACCGAAUCGGGAAAAGGGAAAAGGGGAAAAGGGGAAAGUAUUAUGUUACGCCGUUCGGAUCUGCAC | 0.481 |
| UCAAGUCCUGUGCUACACAUCGUAUGUACCGAAUCGGGAAAGGGUUUGGGAGGGAAAGUAUUAUGUUACGCCGUUCGGAUCUGCACUUCC | 0.845 |
| AAGUCCUGUGCUACACAUCGUAUGUACCGAAUCGGUUUUUUUGGUUUUUGGAAAGGAAAGUAUUAUGUUACGCCGUUCGGAUCUGCACUU | -0.176 |

Set 2
Target: JUN, bZIP domain (human)
Technique: DHFR protein complementation
Sample: yeast
Setting: single substitutions, most at no-binding floor
Reference: wild-type JUN-FOS pair
Reading: higher = stronger binding
Parent: JUN, bZIP domain (human); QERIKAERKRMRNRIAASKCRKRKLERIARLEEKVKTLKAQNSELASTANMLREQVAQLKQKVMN
| Variant | binding fitness |
| --- | --- |
| L59S | -1.26 natural log |
| L38K | -1.36 natural log |
| L52R | -1.29 natural log |
| V35G | -1.27 natural log |
| L59T | -1.22 natural log |
| L52P | -1.34 natural log |
| L31T | -1.35 natural log |
| V35R | -1.2 natural log |
| L31E | -1.45 natural log |
| S43P | -1.34 natural log |
| L52V | -1.37 natural log |

Set 3
Target: Histone acetyltransferase KAT6A, both winged helices, GST fusion (KAT6A, Homo sapiens, UniProt Q92794, residues 1-181)
Technique: protein binding microarray
Form: double-stranded DNA, one strand shown
Sample: in vitro
Concentration: not given
Setting: 8-mer, flanks averaged, mean of 2 arrays, mostly near background
Reference: not given
Reading: higher = stronger binding
Target sequence (chain): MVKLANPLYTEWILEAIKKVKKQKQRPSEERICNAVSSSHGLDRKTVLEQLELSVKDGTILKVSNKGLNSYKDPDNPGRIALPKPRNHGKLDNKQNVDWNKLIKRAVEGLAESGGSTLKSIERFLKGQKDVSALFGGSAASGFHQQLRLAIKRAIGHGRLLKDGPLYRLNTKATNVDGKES
| Strand | E-score |
| --- | --- |
| CACGTTCG | 0.145 |
| ACTCTCCG | 0.017 |
| CCGGTAGC | 0.173 |
| TGGAGTAA | -0.236 |
| CTATATCA | -0.011 |
| ATTGGAGC | -0.144 |
| GATAGCGA | 0.0186 |
| AAGGGACT | -0.218 |
| GATTTACA | -0.0173 |
| ATAGAACA | -0.194 |
| ACATCACC | 0.0968 |
| AGAAGACT | -0.183 |
| AAAACACG | 0.175 |
| AAATACGT | -0.0951 |
| CCGCGACA | 0.227 |
| CATAACCG | 0.0625 |
| ACACAAAA | -0.143 |

Set 4
Target: CCNB2, cyclin fold, Cln2 fusion (human)
Technique: yeast growth competition, sequencing
Sample: yeast
Setting: weak parent motif
Reference: not given
Reading: higher = stronger binding
Parent: MASTL docking peptide (human); PMIAKNLMCELDE; partner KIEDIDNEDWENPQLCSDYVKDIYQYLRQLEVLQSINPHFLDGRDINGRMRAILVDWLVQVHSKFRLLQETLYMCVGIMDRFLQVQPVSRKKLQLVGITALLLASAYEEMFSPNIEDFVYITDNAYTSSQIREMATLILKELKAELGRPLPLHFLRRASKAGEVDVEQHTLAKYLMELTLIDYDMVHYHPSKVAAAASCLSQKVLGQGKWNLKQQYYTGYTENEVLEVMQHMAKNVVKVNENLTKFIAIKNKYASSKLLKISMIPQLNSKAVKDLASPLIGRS
| Variant | normalised enrichment score |
| --- | --- |
| L7A | -0.202 |
| N6T | 0.321 |
| M2E | 0.952 |
| L11K | 0.0665 |
| M2K | 0.95 |
| I3T | 0.309 |
| N6D | 0.196 |
| C9G | 0.124 |
| N6G | -0.0415 |
| E10V | 0.768 |
| K5Y | -0.0202 |
| M8C | 0.089 |
| E10R | 0.803 |
| A4N | 0.353 |
| N6M | 0.362 |
| M2W | 0.433 |
| D12E | 0.75 |
| D12P | 0.317 |
| I3D | -0.31 |
| K5I | 0.0507 |
| L7I | 0.374 |
| K5D | -0.247 |
| A4S | 0.101 |
| I3N | -0.0621 |
| K5G | -0.41 |

Repeated from above (set 4):
| Variant | normalised enrichment score |
| --- | --- |
| E10V | 0.768 |
| M2K | 0.95 |
| I3N | -0.0621 |
| K5I | 0.0507 |
| A4S | 0.101 |
| D12P | 0.317 |
